Published values from different studies.
Each numbered part is a random draw from the data of one study; scales do not carry over between parts. Positions count from the first letter of the parent shown.

Set 1
Target: Histone acetyltransferase KAT6A, winged helix 1, GST fusion (KAT6A, Homo sapiens, UniProt Q92794, residues 1-85)
Technique: protein binding microarray
Molecule type: double-stranded DNA, one strand shown
Sample: in vitro
Concentration: not given
Setting: 8-mer, flanks averaged, mean of 2 arrays, mostly near background
Relative to: not given
Direction: higher = stronger binding
Target sequence (chain): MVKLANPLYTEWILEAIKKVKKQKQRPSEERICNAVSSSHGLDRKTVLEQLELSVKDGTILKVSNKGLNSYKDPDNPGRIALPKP
| Sequence | E-score |
| --- | --- |
| ACGAGTAA | -0.0098 |
| ATATAGAA | -0.0607 |
| GGTGGCAC | -0.073 |
| ATCGGTAG | 0.161 |
| ATTTGTTG | -0.216 |
| CACCTCCG | 0.145 |
| TATTCCAA | -0.272 |
| ACTATCGG | 0.212 |

Set 2
Target: CCNB3, cyclin fold, Cln2 fusion (human)
Technique: yeast growth competition, sequencing
Sample: yeast
Setting: weak parent motif
Relative to: not given
Direction: higher = stronger binding
Starting sequence: CDKN1B docking peptide (human); PSACRNLFGPVDH; partner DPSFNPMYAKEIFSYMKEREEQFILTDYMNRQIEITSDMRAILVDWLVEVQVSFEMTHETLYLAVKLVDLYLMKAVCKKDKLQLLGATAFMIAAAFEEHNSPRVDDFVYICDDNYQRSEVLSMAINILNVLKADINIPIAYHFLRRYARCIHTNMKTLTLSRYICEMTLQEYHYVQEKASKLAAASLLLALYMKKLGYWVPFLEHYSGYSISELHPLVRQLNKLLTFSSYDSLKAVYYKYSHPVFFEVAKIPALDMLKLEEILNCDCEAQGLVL
| Substitution | normalised enrichment score |
| --- | --- |
| PSACRNLVGPVDH [F8V] | -0.403 |
| PNACRNLFGPVDH [S2N] | 0.303 |
| PSACRNLFGPVRH [D12R] | 0.251 |
| PSACRNLFGPVDE [H13E] | 0.0977 |
| PSACRNLFQPVDH [G9Q] | 0.441 |
| PSACRNLFGPVKH [D12K] | 0.393 |
| PSACDNLFGPVDH [R5D] | 0.272 |

Set 3
Target: RNA binding protein fox-1 homolog 2, RRM domain, GST-SBP tag (RBFOX2, Homo sapiens, UniProt O43251-10, residues 100-194)
Technique: RNA Bind-n-Seq
Molecule type: RNA
Sample: in vitro
Concentration: 365 nM
Setting: natural RNA segment, single round, ends assumed
Relative to: no-protein control
Direction: higher = stronger binding
Shared flanks, not repeated: GGGAGUUCUACAGUCCGACGAUC … UGGAAUUCUCGGGUGCCAA
Target sequence (chain): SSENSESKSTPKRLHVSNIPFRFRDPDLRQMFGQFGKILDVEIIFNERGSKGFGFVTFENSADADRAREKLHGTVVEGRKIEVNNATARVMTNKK
| Sequence | RBNS enrichment (R) |
| --- | --- |
| CCGAGAGUCUGGAGUUAGCCCAGUGUUAGGGUAGGAAGGUAGUGGCAGCUUUCCAAAGGGCCUAAAACACCAGGACUGCCUCUGUGAAAGGCCCGAGUGGCUUUGAUGCA | 3.2 |
| UUCUUAACACUGGUAGCUCCUGUCCCAUUCCAAGACUCACUCUCUCAGACCUUCCCAUCUCCCUGGCUUUCCAUGCUCCUCUCCCUCCACCUCCUGGCUUCAACUGGGUG | 0.724 |
| UGACACACACGCCAUCAGCCCUUGGGUGAUGACAGUGACCAGUGUUGUAUGGGGCUUUCCCAGAAUCCCCUUCCCUGAGCAUCCUGGUCUCCCCCACACACACCUGUCAC | 0.332 |
| CUAUUUAAAGACGCAAUCCCAGGUUCCUUGCACACCAUGGCAGCCUCUCCUUGCACCUUCUCCUGCCUCUCCACACUCCAGGUUCCCUCAGGCUUGUGUCCCCACUGCUG | 0.706 |
| GAUGGUUGCAGAAGCCACACAGGGUUAAAGUAAAUUCUGUCUUUGCCCACCAGGGGAUCAAACCCCUGCUGAUCUUGAUAUCAUAUUUCUGUCAUUUGCCAGUUGAUGGA | 0.328 |
| UCACAGAGGCUGACCACCUUACACUGCUGGGUGGUCACAACUGCUCACCAUGUGAACAUAGUACCUCAGUUCUGUCCUUGGCUGCAAUCGUUGUGUGCUCAGUGUUUUCU | 0.284 |
| GAACCAUUUUCAGUUUAUUUACUAUGCAAUAGACAGUCCUUGUUUUGUACUCAGCUAGCUUUGAUUUAAUGUACCACUGCUUUGUCUUUCUGUUACACAUAUGGUUUUGA | 0.627 |
| AAGCAGAAUAAUGGAAUAUAAUAUGUCUUCAUAAUAUAACAACACUAAUACACUAAUAGUAAGAUUAAGUUAGGCAGUCUUCUACCAAAUGUGUAAUGGAGAUUGCCUCA | 0.226 |

Further values, each from its own experiment
| Molecule | target | test | system | setting | how to read | measurement | result |
| --- | --- | --- | --- | --- | --- | --- | --- |
| PhoQ, residues 284 288 289 292 302 303 SMMNNA | PhoP, residues 12 14 15 18 19 NHFIF (Escherichia coli, UniProt P23836) | Sort-seq, item: YFP reporter | E. coli | PhoQ-PhoP variant library, together with: 10 µM Mg2+ | relative to: high Mg2+ state, higher = stronger signaling | fold induction | 0.594 |

For quick reference, copied from above (set 3):
| Sequence | RBNS enrichment (R) |
| --- | --- |
| CUAUUUAAAGACGCAAUCCCAGGUUCCUUGCACACCAUGGCAGCCUCUCCUUGCACCUUCUCCUGCCUCUCCACACUCCAGGUUCCCUCAGGCUUGUGUCCCCACUGCUG | 0.706 |
| CCGAGAGUCUGGAGUUAGCCCAGUGUUAGGGUAGGAAGGUAGUGGCAGCUUUCCAAAGGGCCUAAAACACCAGGACUGCCUCUGUGAAAGGCCCGAGUGGCUUUGAUGCA | 3.2 |
| UGACACACACGCCAUCAGCCCUUGGGUGAUGACAGUGACCAGUGUUGUAUGGGGCUUUCCCAGAAUCCCCUUCCCUGAGCAUCCUGGUCUCCCCCACACACACCUGUCAC | 0.332 |
| UUCUUAACACUGGUAGCUCCUGUCCCAUUCCAAGACUCACUCUCUCAGACCUUCCCAUCUCCCUGGCUUUCCAUGCUCCUCUCCCUCCACCUCCUGGCUUCAACUGGGUG | 0.724 |
